Published values from different studies.
A part holds a random share of what one study measured. Positions count from the first letter of the parent shown.

Block 1 — technique: protein-binding microarray; molecule type: double-stranded DNA, one strand shown; medium: in vitro; tested at: not given; reading: higher = stronger binding; measurement: E-score
Target: Hepatocyte nuclear factor 3-beta, forkhead domain (FOXA2, Homo sapiens, UniProt Q9Y261, residues 142-269)
Notes: k-mer, scored over probes, only values ≥0.25
Construct (chain): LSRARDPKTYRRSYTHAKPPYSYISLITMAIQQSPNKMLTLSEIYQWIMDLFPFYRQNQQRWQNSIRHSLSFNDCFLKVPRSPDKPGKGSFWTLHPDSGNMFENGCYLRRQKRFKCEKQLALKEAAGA
Oligonucleotide = AAAATATC; result = 0.256
Oligonucleotide = ATAGAAAC; result = 0.301
Oligonucleotide = ATGTTAAC; result = 0.356
Oligonucleotide = CATATAGC; result = 0.281
Oligonucleotide = AATATAGT; result = 0.316
Oligonucleotide = ATATTCTA; result = 0.282
Oligonucleotide = TAAACAGA; result = 0.284
Oligonucleotide = AATAATAA; result = 0.259
Oligonucleotide = ATGATTAA; result = 0.291
Oligonucleotide = AACAATTA; result = 0.318
Oligonucleotide = ATAGTAAA; result = 0.279
Oligonucleotide = ACATCATA; result = 0.284
Oligonucleotide = GTTGATTA; result = 0.261
Oligonucleotide = ATTGAGTA; result = 0.342
Oligonucleotide = CAAATATG; result = 0.351
Oligonucleotide = AGGTGTAT; result = 0.26
Oligonucleotide = CGTTACTA; result = 0.253
Oligonucleotide = ACTACATG; result = 0.356
Oligonucleotide = ATGTTTTC; result = 0.256
Oligonucleotide = ATTGACAA; result = 0.27
Oligonucleotide = ACTGCATA; result = 0.256
Oligonucleotide = ACACTCAT; result = 0.262
Oligonucleotide = AAATATTG; result = 0.32
Oligonucleotide = ATAATATG; result = 0.321
Oligonucleotide = AATAGCAA; result = 0.299

Block 2 — technique: protein binding microarray; molecule type: double-stranded DNA, one strand shown; medium: in vitro; tested at: not given; reference: not given; reading: higher = stronger binding; measurement: E-score
Target: Histone acetyltransferase KAT6A, winged helix 1, GST fusion (KAT6A, Homo sapiens, UniProt Q92794, residues 1-85)
Notes: 8-mer, flanks averaged, mean of 2 arrays, mostly near background
Residues (chain): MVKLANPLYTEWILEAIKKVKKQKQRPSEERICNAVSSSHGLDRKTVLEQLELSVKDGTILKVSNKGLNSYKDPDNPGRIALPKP
Oligonucleotide = TAGTAATA; result = -0.0425
Oligonucleotide = ACGTGAAA; result = -0.145
Oligonucleotide = AACGGTTG; result = -0.0347
Oligonucleotide = CGGTCGCA; result = 0.253
Oligonucleotide = GCTGTTAC; result = 0.17
Oligonucleotide = ACACCCGC; result = 0.27
Oligonucleotide = CGCCCGGA; result = 0.279
Oligonucleotide = CATTTCAG; result = -0.281
Oligonucleotide = GGCTTGAC; result = -0.158
Oligonucleotide = ATACAGTA; result = -0.0134
Oligonucleotide = AGCGTAAG; result = 0.191
Oligonucleotide = GTGGTCGA; result = -0.183
Oligonucleotide = CTGTTCTA; result = -0.144
Oligonucleotide = CAACGCCG; result = 0.287
Oligonucleotide = AACCCCAA; result = -0.202
Oligonucleotide = AATGTACC; result = 0.0579
Oligonucleotide = CCAGCTCG; result = -0.0921
Oligonucleotide = AACGTACC; result = -0.0952
Oligonucleotide = AGTCTCTG; result = -0.136
Oligonucleotide = TTAACAAA; result = 0.0264
Oligonucleotide = CACAGGAA; result = -0.212
Oligonucleotide = CCTCTCTA; result = -0.126
Oligonucleotide = AGCTGCCA; result = -0.181
Oligonucleotide = AATCATGT; result = -0.214
Oligonucleotide = AGGATTGA; result = -0.156

Block 3 — technique: protein-binding microarray; molecule type: double-stranded DNA, one strand shown; medium: in vitro; tested at: 2200 nM top; notes: 60-bp whole probe; together with: salmon DNA 0.4 mg/ml; reference: random background probes; reading: higher = stronger binding; measurement: fitted relative affinity; all sequences stand within: GCCTAGCAC … GTCTTGATTCGCTTGACGCTGCTG
Target: Interferon regulatory factor 7, full length, phosphomimetic (IRF7, Homo sapiens, UniProt Q92985, residues 1-503, S471D/S472D/S475D/S476D/S477D/S483D/S484D/S487D)
Target sequence (chain): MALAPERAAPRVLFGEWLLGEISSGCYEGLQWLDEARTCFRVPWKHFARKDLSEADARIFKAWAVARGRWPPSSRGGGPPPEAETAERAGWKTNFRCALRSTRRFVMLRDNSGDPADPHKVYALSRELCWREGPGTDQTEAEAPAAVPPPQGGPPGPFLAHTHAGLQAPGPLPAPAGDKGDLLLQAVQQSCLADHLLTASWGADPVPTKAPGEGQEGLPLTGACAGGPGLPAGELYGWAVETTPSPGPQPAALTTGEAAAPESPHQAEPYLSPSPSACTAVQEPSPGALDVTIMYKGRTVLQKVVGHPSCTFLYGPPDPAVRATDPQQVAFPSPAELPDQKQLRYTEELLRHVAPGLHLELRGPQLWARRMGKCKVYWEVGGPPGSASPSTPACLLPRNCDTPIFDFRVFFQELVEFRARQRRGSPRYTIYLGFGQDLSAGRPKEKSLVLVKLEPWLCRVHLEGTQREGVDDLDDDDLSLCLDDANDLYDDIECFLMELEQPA
Oligonucleotide = TCACTCGTCTCTATCAAACTGTGCTAG; result = 1.55 z-score
Oligonucleotide = GACGGTTACCTACTGCTGACGTGCTAG; result = 0.459 z-score
Oligonucleotide = TCATTTCTCTTATTCTAACTGTGCTAG; result = 2.6 z-score
Oligonucleotide = GACGGTATCGGTATGGGGACGTGCTAG; result = 0.205 z-score
Oligonucleotide = TTATATCTCAGTATCGATTAGTGCTAG; result = 0.962 z-score
Oligonucleotide = GACGGTTTCGGGTATCGGAACGTGCTA; result = 6.08 z-score
Oligonucleotide = GACGATTTCGGGTACCGAGACGTGCTA; result = 2.45 z-score
Oligonucleotide = GACGGTTACGACTATCGGGACGTGCTA; result = -0.283 z-score
Oligonucleotide = TCATCTATCTCTGTTTTACTGTGCTAG; result = 1.97 z-score
Oligonucleotide = GCCAAAAGTGTAAATGTAAGGTGCTAG; result = -0.198 z-score
Oligonucleotide = CATTTTATGGTATTTTTTTCGTGCTAG; result = 1.66 z-score
Oligonucleotide = TTAGGTTTCCTTTCCCTTGAGTGCTAG; result = 4.02 z-score
Oligonucleotide = TTAAGACTGCTACTGCTTTAGTGCTAG; result = -0.445 z-score
Oligonucleotide = CTAGATATCGGGTTTCGATTAGTGCTA; result = 2.92 z-score
Oligonucleotide = TTAGGTATCCTTTTCCGTTAGTGCTAG; result = 1.89 z-score
Oligonucleotide = GACGGTATCCTACTGCTAACGTGCTAG; result = 0.747 z-score
Oligonucleotide = TTAGGTTTCGGTATCGGTTGGTGCTAG; result = 8.43 z-score
Oligonucleotide = GACGGTATCCATTTCCTGACGTGCTAG; result = 1.38 z-score
Oligonucleotide = TCACATTTTGGTTTTCTACTGTGCTAG; result = 3 z-score

Block 4 — technique: RNA Bind-n-Seq; molecule type: RNA; medium: in vitro; tested at: 200 nM; notes: whole 134-nt RNA, ends assumed; together with: 150 mM KCl; reference: input library; reading: higher = stronger binding; measurement: log2 enrichment
Target: Ras GTPase-activating protein-binding protein 1, full length (G3BP1, Homo sapiens, UniProt Q13283)
Sequence of UniProt Q13283 (whole entry, looked up): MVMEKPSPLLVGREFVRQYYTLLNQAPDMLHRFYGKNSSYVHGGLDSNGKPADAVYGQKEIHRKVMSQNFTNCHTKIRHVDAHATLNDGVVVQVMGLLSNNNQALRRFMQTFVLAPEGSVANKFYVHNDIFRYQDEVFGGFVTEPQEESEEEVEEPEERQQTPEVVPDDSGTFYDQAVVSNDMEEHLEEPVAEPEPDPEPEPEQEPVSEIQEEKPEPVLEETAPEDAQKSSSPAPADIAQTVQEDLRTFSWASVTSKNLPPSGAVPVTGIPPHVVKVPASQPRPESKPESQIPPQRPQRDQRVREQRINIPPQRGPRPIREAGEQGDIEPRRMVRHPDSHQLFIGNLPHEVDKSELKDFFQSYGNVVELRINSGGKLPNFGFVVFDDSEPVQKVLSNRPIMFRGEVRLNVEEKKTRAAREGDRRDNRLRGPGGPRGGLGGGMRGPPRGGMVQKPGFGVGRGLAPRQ
All sequences stand within: GGGAGUUCUACAGUCCGACGAUC … UGGAAUUCUCGGGUGUCAAGG
Oligonucleotide = UUCCUCAAGUCCUGUGCUACACAUCGUAUGUACCGAAUCGGAGGAGGGAGGAAAGUAUUAUGUUACGCCGUUCGGAUCUGCACUUCCAGC; result = -0.639
Oligonucleotide = ACUUUGUCAGAUAUUGCUAGGGACCAGUGAGAUAGAUAAUCCAAAAAUAAUAAUUUGACUUUGGUUGAGUAUGUCAUUACCACAGUGUUA; result = -2.04
Oligonucleotide = UGCUGGUGAGCUGCUGCCUGGCAGGCCACGUCUGCGUGUGGGACGCGCAGACCGGGGAUUGCCUAACGCGCAUUCCGCGCCCAGGGUAGG; result = -1.38
Oligonucleotide = UGGGAGGUGGAUUUUGUUUAUUUUUUUAGCUCAUUUCCAGGGGUGGGAAUUUUUUUUUAAUAUGUGUCAUGAAAAAAGUUGUUUUUGAAA; result = 0.342
Oligonucleotide = UGUUCACAUUUUAAGGAUGACAAGUCCACUAUAUGUAACACGUAAGAAUGCUAUCCUGGCAGUAGACACAGGGCCAGAAUAAACUGGCAA; result = -0.987
Oligonucleotide = CCUCAAGUCCUGUGCUACACAUCGUAUGUACCGAAUCGGUUGGUUGGGGUUGGAAAGUAUUAUGUUACGCCGUUCGGAUCUGCACUUCCA; result = -0.326
Oligonucleotide = AAGUCCUGUGCUACACAUCGUAUGUACCGAAUCGGUUUUGGGUUUUGGUUUUGGGGAAAGUAUUAUGUUACGCCGUUCGGAUCUGCACUU; result = -1.15
Oligonucleotide = UGGGAGGUGGAUUUUGUUUAUUUUUUUAGCUCAUUUCCAGGGGUGGGAAUUUUUUUUUAAUAUGUGUUAUGAAUAAAGUUGUUUUUGAAA; result = 0.103
Oligonucleotide = CCUCAAGUCCUGUGCUACACAUCGUAUGUACCGAAUCGGGAGGAGGGGAGGGGAAAGUAUUAUGUUACGCCGUUCGGAUCUGCACUUCCA; result = 1.32

Block 5 — target: CCNE1, cyclin fold, Cln2 fusion (human); technique: yeast growth competition, sequencing; medium: yeast; notes: strong parent motif; reference: not given; reading: higher = stronger binding; measurement: normalised enrichment score
Starting sequence: E2F1 docking peptide (human); PPVKRRLDFETDH; partner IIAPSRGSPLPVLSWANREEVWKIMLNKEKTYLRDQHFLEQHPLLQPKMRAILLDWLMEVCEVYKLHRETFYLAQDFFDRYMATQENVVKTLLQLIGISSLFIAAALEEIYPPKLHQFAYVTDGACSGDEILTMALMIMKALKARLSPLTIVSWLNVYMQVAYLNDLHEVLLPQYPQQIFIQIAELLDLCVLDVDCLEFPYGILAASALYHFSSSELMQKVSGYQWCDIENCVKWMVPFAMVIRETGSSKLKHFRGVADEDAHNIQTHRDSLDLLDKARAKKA
Change = F9R; result = 0.274
Change = D8A; result = 6.21
Change = R6E; result = 3.09
Change = P2I; result = 5.57
Change = L7Y; result = 0.0505
Change = E10I; result = 5.98
Change = K4D; result = 0.788
Change = R5G; result = 0.233
Change = E10F; result = 6.14
Change = F9I; result = 0.898
Change = V3S; result = 2.5
Change = E10G; result = 6.66
Change = F9M; result = 2.71
Change = E10L; result = 6.03
Change = R6F; result = 3.3
Change = R5N; result = 0.337
Change = R6K; result = 5.96
Change = R6Q; result = 5.94
Change = K4I; result = 5.19
Change = V3P; result = 3.17
Change = V3I; result = 2.68
Change = R6N; result = 2.03
Change = E10Y; result = 5.69
Change = R5K; result = 3.25
Change = P2M; result = 5.82

A few entries again (block 1):
Oligonucleotide = ATGTTAAC; result = 0.356
Oligonucleotide = CATATAGC; result = 0.281
Oligonucleotide = AATATAGT; result = 0.316
Oligonucleotide = ATATTCTA; result = 0.282
Oligonucleotide = TAAACAGA; result = 0.284
Oligonucleotide = AATAATAA; result = 0.259
Oligonucleotide = ATGATTAA; result = 0.291
Oligonucleotide = AACAATTA; result = 0.318
Oligonucleotide = ATAGTAAA; result = 0.279
Oligonucleotide = ACATCATA; result = 0.284
Oligonucleotide = GTTGATTA; result = 0.261
Oligonucleotide = ATTGAGTA; result = 0.342
Oligonucleotide = CAAATATG; result = 0.351
Oligonucleotide = AGGTGTAT; result = 0.26
Oligonucleotide = CGTTACTA; result = 0.253
Oligonucleotide = ACTACATG; result = 0.356
